# Published values from different studies.
# Every numbered part comes from another study and shows a few of its results, in no order. Substitutions count along the parent as printed.

# Study 1
# Target: Sal-like protein 4, full length isoform A (SALL4, Homo sapiens, UniProt Q9UJQ4, residues 1-1053)
# UniProt Q9UJQ4, sequence (whole entry, looked up): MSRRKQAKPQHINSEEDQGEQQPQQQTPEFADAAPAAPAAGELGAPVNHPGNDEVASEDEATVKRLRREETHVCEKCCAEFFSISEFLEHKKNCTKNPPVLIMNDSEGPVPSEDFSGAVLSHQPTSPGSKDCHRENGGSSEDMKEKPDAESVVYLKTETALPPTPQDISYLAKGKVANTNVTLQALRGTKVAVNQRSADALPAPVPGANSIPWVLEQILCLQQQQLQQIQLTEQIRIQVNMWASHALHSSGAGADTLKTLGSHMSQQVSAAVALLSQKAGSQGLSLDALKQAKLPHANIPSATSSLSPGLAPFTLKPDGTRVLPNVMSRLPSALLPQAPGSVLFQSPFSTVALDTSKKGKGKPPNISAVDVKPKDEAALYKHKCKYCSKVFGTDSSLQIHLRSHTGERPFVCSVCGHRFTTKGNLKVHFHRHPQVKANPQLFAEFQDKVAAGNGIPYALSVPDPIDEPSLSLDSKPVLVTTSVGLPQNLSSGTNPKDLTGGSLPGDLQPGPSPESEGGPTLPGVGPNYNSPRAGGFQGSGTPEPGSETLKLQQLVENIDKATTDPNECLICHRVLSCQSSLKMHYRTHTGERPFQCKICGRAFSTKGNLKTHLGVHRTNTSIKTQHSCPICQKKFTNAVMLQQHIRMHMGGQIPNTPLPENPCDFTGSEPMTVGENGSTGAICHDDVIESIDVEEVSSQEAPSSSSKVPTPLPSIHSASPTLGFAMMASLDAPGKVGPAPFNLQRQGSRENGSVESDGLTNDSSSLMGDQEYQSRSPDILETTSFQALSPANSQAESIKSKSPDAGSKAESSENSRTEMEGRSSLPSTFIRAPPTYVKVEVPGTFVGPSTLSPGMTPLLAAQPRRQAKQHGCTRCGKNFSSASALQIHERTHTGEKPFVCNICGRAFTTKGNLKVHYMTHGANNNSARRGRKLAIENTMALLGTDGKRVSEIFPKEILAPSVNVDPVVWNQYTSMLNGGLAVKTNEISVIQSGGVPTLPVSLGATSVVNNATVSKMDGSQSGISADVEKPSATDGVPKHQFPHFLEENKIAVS
# Method: universal PBM
# Form: double-stranded DNA, one strand shown
# Medium: in vitro
# Tested at: 600 nM
# Notes: 8-mer, flanks averaged, mean of replicates
# Direction: higher = stronger binding
Oligonucleotide,E-score
ACACGTAA,0.225
AGTTCGTG,-0.0855
CCACTGCA,-0.0937
GAGTGGTA,-0.0855
ACGATAGA,0.059
AATCAGCT,0.129
CAATTTCG,0.0752
AGTTCGTA,0.0487
CTACCGGC,-0.331
AAATCACT,0.209
AGAATACA,0.248
AGTGTTAA,0.238
CAAGGGCG,-0.242
ACCAGGCT,-0.214
AATGAACC,0.0721
AGAGTTTG,0.105
AAAAATTA,0.427
CAGATGAC,-0.0417
GAACACCA,-0.0903
ACGTAGTC,-0.0283

# Study 2
# Target: TAR DNA-binding protein 43, full length, His tag (TARDBP, Homo sapiens, UniProt Q13148, residues 1-414)
# Method: RNA Bind-n-Seq
# Form: RNA
# Medium: in vitro
# Tested at: 20 nM
# Notes: 6-mer, flanks averaged, single round
# With: 150 mM LiCl
# Relative to: input library
# Direction: higher = stronger binding
Oligonucleotide,6-mer enrichment (R)
AAACCC,0.907
AUGAAA,0.882
UAUCCU,0.895
UAACUC,0.883
GUCACU,0.883
GCUCAA,0.838
GGUGGG,1.57
UGGGGU,1.38
AGGGGC,1.18
CUAAGU,0.892
UUUCUU,1.22
AGAUUU,0.89
GACCUG,0.907
UCACCU,0.889
AUCACC,0.879
GCGUCG,1.1
GCUUGC,0.962

# Study 3
# Target: CCNF, cyclin fold, Cln2 fusion (human)
# Method: yeast growth competition, sequencing
# Medium: yeast
# Notes: weak parent motif
# Relative to: not given
# Direction: higher = stronger binding
# Parent: MASTL docking peptide (human); PMIAKNLMCELDE
Variant,normalised enrichment score
E10N,0.16
I3Q,-0.404
L11G,0.113
N6K,0.587
L7W,-0.357
M2E,-0.123
K5S,-0.523
L11N,-0.251
E10I,0.325
N6S,-0.0246
M8Y,-0.328
C9S,-0.0653
L7Q,0.231
N6P,-0.512
N6A,-0.195
C9M,-0.037
D12S,0.197
C9K,0.277
C9D,-0.117
N6D,-0.315
D12R,0.106
D12Y,-0.0175
I3N,-0.388
K5D,-0.00719

# Study 4
# Target: Fragile X messenger ribonucleoprotein 1, C-terminal low-complexity region (Fmr1, Mus musculus, UniProt P35922)
# Method: RNA Bind-n-Seq
# Form: RNA
# Medium: in vitro
# Tested at: 200 nM
# Notes: whole 134-nt RNA, ends assumed
# With: 150 mM KCl
# Relative to: input library
# Direction: higher = stronger binding
Oligonucleotide,log2 enrichment
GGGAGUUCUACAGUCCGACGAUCCUGUGCUACACAUCGUAUGUACCGAAUCGGGGUUUUUUUGGGGUUUUUUUGGGUUUUUUUGGAAAGUAUUAUGUUACGCCGUUCGGAUCUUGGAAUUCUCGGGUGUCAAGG,-0.0622
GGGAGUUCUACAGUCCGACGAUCGCAGGAAGUAAAAACAAAUGGAAAUGCUUCGGAUCGUGGCAGGGGUGGGGGUUGCUAAGGAAAGGGUGGGAUGGGAGUGGGUAAAGAGUUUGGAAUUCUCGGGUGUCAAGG,0.413
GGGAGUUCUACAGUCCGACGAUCCACAGACUACACGCACCCACACAGACACAGAGGGAAGGGGUUGGGAUGGGGACAGGGUGCACAGCAGGGCGGGGUAGGACCCCAGCCCCUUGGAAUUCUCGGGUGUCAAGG,1.38
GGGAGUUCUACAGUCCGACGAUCUCAAGUCCUGUGCUACACAUCGUAUGUACCGAAUCGGGUUGGGUUGGGGUUGGGAAAGUAUUAUGUUACGCCGUUCGGAUCUGCACUUCCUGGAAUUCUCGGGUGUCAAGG,1.38
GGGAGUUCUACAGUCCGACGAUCACCAUGCAGGUGGGCCUCUUUGGGAAGUGGGGCAAGGGGGGGAUAGGGAGGGGGGUAACACUUUGGGAACAGGUGGUCCCAGGUCGUUUCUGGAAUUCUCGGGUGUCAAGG,0.861
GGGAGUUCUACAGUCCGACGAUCGUCCUGUGCUACACAUCGUAUGUACCGAAUCGGGUUUUUGGGUUUUUUUGGGUUUGGGAAAGUAUUAUGUUACGCCGUUCGGAUCUGCACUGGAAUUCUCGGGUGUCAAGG,0.164
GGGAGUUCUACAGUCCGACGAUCGGGGUGAGCACAGACAGGAUCGCAGGGAGAGGCCGUAUUAAUUAGCCUGGCUCCCCAGGUUCUGGAACAGCUUUUUGUCCUGUACCCAGUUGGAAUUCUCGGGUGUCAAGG,0.116
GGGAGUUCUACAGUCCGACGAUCUCAAGUCCUGUGCUACACAUCGUAUGUACCGAAUCGGGGCCGGGCCGGGGCCGGAAAGUAUUAUGUUACGCCGUUCGGAUCUGCACUUCCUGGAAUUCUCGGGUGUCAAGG,-0.112
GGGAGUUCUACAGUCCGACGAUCGUCCUGUGCUACACAUCGUAUGUACCGAAUCGGGUUUGGGUUUUUGGGAAAAAAAGGGAAAGUAUUAUGUUACGCCGUUCGGAUCUGCACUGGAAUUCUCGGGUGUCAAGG,-0.00304
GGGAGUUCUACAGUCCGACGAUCUGGCCCUGGUAGCAUGCGGGGAGGAAGAGGUGGCCUCAUGGAUCGUGGUGGUCCCGGUGGAAUGUUCAGAGGUGGCCGUGGUGGAGACAGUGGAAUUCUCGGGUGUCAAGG,0.0201
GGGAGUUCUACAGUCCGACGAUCCACAGACAACACGCACCCACAUAGACACAGAGGGAAGGGGUUGGGAUGGGGACAGGGUGCACAGCAGGGCGGGGUAGGACCCCAGCCCCUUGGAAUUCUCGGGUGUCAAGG,1.27
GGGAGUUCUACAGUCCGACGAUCUAACUUGAGAGGAGGAUCUGAUGGAUAUGGCAGUGGACGUGGAUUUGGGGAUGGCUAUAAUGGGUAUGGAGGAGGACCUGGAGGUGGCAAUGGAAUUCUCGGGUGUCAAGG,0.276
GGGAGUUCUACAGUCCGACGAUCCCUGUGCUACACAUCGUAUGUACCGAAUCGGGAAAAAAAGGGGAAAAAAAGGAAAAAAAGGAAAGUAUUAUGUUACGCCGUUCGGAUCUGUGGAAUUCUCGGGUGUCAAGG,-0.843
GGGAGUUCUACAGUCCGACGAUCACCAUGCAGGUGGGCAUCUUUGGGAAGUGGGGCAAGGGGGGGAUAGGGAGGGGGGUAACACUUUAGGAACAGGUGGUCCCAGGUCGUUUCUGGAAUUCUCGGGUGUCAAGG,0.523

# Study 5
# Target: CREB3L3, bZIP domain (human)
# Method: DHFR protein complementation
# Medium: yeast
# Notes: single substitutions, most at no-binding floor
# Relative to: wild-type JUN-FOS pair
# Direction: higher = stronger binding
# Parent: JUN, bZIP domain (human); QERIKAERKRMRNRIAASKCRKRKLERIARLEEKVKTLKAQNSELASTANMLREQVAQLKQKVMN; partner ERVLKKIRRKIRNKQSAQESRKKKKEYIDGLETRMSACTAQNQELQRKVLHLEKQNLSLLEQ
Variant,binding fitness
L52N,-1.45 natural log
L38F,-1.51 natural log
T48E,-1.33 natural log
V35G,-1.49 natural log
Q41R,-1.54 natural log
I28V,-1.38 natural log
T48N,-1.53 natural log
E32V,-1.38 natural log
Q55W,-1.49 natural log
L31S,-1.5 natural log
A57D,-1.34 natural log
L52W,-1.43 natural log
N42D,-1.51 natural log
M51N,-1.33 natural log
R53W,-1.33 natural log
Q41D,-1.47 natural log
A29Y,-1.5 natural log
A46Q,-1.13 natural log
K34Q,-1.49 natural log
Q55L,-1.5 natural log

# Study 6
# Target: OGT, full length, His-tagged (human)
# Method: phage display, sequencing
# Medium: in vitro
# Tested at: 1 µg OGT
# Notes: single substitutions, 15-mer displayed peptide, unchanged parent 6.14
# Relative to: input library
# Direction: higher = stronger binding
# Parent: peptide; VAYPNSYMPKYQIST
Variant,fold enrichment
VAYPNSYMFKYQIST [P9F],3.59 fold
VAGPNSYMPKYQIST [Y3G],6.08 fold
SAYPNSYMPKYQIST [V1S],7.9 fold
VAKPNSYMPKYQIST [Y3K],3.59 fold
VAYPNSYMWKYQIST [P9W],1.49 fold
VAYPNSDMPKYQIST [Y7D],0.592 fold
VAYPNSYMPKYDIST [Q12D],0.687 fold
VAYPESYMPKYQIST [N5E],6.22 fold
VAYPNSYMPKYQDST [I13D],0.494 fold
VAYPNSYVPKYQIST [M8V],1.42 fold
VAYPNSYWPKYQIST [M8W],2.77 fold
VAYPNSYMPKYWIST [Q12W],0.909 fold
VAYPNSYMPKYQAST [I13A],0.57 fold
WAYPNSYMPKYQIST [V1W],7.09 fold
VAYPNSIMPKYQIST [Y7I],1.12 fold
VAYPNSYMPKAQIST [Y11A],0.723 fold
VAYPNSYMPKYQMST [I13M],0.615 fold

# Some of these lines once more (study 2):
Oligonucleotide,6-mer enrichment (R)
AGGGGC,1.18
CUAAGU,0.892
UUUCUU,1.22
AGAUUU,0.89
GACCUG,0.907
UCACCU,0.889
AUCACC,0.879
